Published values pooled from the literature.
“And” joins repeats or separate records; there may be more than shown. ± gives the spread as reported.
T1: ssDNA, aptamer; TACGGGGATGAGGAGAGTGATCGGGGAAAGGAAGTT
Chain of UniProt Q16774 (whole entry, unmodified, looked up): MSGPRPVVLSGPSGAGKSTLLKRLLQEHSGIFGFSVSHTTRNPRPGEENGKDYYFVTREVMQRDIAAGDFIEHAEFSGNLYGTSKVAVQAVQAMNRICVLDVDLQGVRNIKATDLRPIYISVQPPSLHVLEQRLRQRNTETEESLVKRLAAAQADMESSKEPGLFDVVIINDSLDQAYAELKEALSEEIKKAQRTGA
Chain of UniProt P19440 (whole entry, looked up): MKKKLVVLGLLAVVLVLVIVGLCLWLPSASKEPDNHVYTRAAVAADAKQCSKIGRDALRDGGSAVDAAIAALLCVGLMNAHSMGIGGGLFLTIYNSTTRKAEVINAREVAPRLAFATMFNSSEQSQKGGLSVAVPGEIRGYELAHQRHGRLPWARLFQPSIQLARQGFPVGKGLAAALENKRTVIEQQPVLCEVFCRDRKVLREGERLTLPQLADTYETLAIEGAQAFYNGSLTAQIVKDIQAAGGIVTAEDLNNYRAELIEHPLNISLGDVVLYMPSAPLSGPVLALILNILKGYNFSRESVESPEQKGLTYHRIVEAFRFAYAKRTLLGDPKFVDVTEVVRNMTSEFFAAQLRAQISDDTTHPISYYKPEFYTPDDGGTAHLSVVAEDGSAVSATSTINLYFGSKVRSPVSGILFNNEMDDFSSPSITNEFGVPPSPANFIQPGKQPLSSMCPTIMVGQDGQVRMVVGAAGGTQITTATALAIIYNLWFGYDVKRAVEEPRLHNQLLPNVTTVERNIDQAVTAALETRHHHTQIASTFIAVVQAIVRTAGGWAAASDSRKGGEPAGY
Chain of UniProt P22736 (whole entry, looked up): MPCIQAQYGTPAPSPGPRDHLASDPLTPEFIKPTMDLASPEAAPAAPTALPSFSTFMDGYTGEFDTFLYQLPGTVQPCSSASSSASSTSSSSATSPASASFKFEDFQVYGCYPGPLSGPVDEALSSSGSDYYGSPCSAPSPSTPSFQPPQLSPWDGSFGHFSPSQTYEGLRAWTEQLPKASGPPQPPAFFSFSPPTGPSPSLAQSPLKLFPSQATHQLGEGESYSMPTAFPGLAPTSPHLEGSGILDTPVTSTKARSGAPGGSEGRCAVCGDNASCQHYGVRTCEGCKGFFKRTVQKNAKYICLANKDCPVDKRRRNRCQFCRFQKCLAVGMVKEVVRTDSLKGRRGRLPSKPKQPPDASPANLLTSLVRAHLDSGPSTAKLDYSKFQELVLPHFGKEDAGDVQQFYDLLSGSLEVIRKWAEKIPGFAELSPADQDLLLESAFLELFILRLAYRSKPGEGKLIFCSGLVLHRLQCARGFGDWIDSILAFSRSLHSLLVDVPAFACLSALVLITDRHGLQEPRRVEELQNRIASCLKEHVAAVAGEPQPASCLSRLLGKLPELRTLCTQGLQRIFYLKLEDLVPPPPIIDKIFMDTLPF
Chain of UniProt Q6ZNE5 (whole entry, looked up): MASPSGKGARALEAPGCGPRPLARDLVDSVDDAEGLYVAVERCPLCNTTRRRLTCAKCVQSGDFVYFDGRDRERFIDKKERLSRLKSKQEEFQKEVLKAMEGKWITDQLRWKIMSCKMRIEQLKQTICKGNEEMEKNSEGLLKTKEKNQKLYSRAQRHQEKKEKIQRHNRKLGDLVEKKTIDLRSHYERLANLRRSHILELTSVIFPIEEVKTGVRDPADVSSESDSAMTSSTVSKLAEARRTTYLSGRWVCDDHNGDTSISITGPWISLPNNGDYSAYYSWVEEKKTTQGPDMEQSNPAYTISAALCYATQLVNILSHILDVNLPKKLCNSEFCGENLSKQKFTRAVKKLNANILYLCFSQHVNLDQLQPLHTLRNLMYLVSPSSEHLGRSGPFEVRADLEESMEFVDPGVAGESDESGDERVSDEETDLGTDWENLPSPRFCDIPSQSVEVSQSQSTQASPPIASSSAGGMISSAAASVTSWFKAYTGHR
Chain of UniProt P11388 (whole entry, looked up): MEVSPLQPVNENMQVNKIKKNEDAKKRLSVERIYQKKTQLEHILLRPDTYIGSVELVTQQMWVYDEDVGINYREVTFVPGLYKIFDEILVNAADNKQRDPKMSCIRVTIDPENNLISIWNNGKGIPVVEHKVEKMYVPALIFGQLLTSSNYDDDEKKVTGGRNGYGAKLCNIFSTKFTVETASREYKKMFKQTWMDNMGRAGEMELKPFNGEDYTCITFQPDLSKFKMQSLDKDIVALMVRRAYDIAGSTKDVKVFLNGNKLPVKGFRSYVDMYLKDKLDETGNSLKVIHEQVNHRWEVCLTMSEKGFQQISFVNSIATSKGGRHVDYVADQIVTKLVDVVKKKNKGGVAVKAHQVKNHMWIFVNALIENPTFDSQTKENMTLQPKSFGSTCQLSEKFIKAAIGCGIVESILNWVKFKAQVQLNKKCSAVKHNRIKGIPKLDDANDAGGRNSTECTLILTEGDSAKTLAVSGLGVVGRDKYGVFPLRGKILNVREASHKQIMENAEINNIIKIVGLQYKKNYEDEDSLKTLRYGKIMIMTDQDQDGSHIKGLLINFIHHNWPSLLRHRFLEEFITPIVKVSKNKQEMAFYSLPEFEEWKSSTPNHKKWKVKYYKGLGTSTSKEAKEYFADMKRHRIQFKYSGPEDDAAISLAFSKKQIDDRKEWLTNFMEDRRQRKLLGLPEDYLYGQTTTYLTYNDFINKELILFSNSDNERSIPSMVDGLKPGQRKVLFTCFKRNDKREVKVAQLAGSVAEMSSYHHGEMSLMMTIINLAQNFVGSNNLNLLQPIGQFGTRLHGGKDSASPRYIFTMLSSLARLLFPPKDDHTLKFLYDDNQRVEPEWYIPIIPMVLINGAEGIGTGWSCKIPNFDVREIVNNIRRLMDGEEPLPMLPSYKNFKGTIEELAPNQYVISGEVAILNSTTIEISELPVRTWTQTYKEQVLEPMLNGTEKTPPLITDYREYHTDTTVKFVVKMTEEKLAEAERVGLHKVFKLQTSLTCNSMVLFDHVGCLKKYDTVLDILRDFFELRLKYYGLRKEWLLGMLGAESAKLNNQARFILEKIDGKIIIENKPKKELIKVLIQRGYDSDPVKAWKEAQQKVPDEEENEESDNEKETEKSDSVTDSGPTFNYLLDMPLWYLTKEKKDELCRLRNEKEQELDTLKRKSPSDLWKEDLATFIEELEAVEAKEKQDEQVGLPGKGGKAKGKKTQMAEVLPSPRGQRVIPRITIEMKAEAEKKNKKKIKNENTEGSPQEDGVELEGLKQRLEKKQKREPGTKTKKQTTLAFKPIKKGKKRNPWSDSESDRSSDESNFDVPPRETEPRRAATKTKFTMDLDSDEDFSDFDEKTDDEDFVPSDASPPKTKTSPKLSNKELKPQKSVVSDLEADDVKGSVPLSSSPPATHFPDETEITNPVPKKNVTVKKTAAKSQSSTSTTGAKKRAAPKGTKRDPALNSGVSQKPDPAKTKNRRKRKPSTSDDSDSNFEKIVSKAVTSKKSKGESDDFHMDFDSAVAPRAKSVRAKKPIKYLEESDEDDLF
Chain of UniProt P45983 (whole entry, looked up): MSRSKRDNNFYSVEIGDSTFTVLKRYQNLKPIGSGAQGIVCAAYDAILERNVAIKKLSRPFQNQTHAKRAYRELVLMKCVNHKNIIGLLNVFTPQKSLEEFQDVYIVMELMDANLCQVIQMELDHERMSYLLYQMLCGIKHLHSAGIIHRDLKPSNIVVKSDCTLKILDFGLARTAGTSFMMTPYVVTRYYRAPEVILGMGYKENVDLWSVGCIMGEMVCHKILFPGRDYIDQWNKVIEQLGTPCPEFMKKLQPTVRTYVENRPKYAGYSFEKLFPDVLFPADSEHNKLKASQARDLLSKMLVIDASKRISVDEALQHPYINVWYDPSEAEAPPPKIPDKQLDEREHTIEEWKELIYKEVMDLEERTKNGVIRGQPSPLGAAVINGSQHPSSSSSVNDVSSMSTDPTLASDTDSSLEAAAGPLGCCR
Chain of UniProt Q15399 (whole entry, looked up): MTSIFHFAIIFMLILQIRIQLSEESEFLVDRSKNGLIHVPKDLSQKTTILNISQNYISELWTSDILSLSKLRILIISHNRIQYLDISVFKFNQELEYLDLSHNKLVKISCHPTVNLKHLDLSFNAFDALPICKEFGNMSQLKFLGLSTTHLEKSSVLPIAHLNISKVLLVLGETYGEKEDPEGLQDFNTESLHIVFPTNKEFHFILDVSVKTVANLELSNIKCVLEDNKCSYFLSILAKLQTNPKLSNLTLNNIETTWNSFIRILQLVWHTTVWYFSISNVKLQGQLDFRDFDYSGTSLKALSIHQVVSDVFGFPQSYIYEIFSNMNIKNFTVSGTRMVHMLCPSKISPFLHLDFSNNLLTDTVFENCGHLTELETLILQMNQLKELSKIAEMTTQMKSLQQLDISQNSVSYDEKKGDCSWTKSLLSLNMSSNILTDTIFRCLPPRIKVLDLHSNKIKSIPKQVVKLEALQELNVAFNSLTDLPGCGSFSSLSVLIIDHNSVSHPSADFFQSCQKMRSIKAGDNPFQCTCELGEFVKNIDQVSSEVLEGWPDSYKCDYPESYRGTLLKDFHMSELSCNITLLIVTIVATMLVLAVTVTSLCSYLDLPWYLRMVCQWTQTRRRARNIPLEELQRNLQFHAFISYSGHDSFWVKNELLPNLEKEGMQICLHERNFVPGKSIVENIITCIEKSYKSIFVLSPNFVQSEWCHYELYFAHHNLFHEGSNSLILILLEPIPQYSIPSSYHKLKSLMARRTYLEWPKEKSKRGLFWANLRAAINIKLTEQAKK
Chain of UniProt P47898 (whole entry, looked up): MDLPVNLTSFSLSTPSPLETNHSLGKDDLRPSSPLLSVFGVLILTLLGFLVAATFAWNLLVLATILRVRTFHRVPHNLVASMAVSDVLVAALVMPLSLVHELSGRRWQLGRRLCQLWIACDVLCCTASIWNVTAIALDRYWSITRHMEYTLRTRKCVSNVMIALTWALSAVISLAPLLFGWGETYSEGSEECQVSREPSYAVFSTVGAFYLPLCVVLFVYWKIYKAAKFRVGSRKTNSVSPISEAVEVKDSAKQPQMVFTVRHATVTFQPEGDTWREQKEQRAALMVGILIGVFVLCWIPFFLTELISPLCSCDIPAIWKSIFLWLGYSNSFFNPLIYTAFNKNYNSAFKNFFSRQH

SMILES = CCCC[C@@H]1NC(=O)[C@H](Cc2ccc(O)cc2)NC(=O)[C@@H]2CCCN2C(=O)[C@H](CC(=O)O)NC(=O)[C@H](C)NC(=O)[C@H](Cc2ccccc2)NC(=O)[C@@H]2CSCCC(=O)N3CN(CN(C3)C(=O)CCSC[C@@H](C(=O)N[C@@H](CNC(=O)CCc3cn(CCOCCOCCOCCOCCOCCOCCOCCOCCOCCOCCOCCOCCC(=O)NCCC(=O)N(C)CC(=O)N(C)CC(=O)N(C)CC(=O)N(C)CC(=O)N(C)CC(=O)N(C)CC(=O)N(C)CC(=O)N(C)CC(=O)N(C)CC(=O)N(C)CC(=O)NCCCC[C@@H]4NC(=O)[C@H](Cc5cccc6ccccc56)NC(=O)[C@@H]5CCCN5C(=O)[C@@H](NC(C)=O)CSCCC(=O)N5CN6CN(C5)C(=O)CCSC[C@H](NC4=O)C(=O)N[C@@H](CCSC)C(=O)N[C@@H](CCCCNC(=N)N)C(=O)N[C@@H](CC(=O)O)C(=O)N[C@@H](Cc4c[nH]c5ccccc45)C(=O)N[C@@H](CO)C(=O)N[C@@H]([C@@H](C)O)C(=O)N4CCC[C@H]4C(=O)N4C[C@H](O)C[C@H]4C(=O)N[C@@H](Cc4c[nH]c5ccccc45)C(=O)N[C@H](C(N)=O)CSCCC6=O)nn3)C(N)=O)NC1=O)C(=O)CCSC[C@H](NC(C)=O)C(=O)N[C@@H](CC(C)(C)C)C(=O)N1CCC[C@H]1C(=O)N[C@@H](CCC(=O)O)C(=O)N[C@H](C)C(=O)N1CCC[C@H]1C(=O)N[C@@H](Cc1ccc(O)cc1)C(=O)N2; target = Tumor necrosis factor receptor superfamily member 9/Nectin-4 (Homo sapiens, UniProt Q07011+Q96NY8); assay = reporter gene, agonist; test system = HT-1376 coculture with reporter cells; how to read = relative to: background; endpoint = Emax; value = 39 fold
SMILES = O=C(O)c1ccc(Nc2ncc3c(n2)-c2ccc(Cl)cc2C(c2c(F)cccc2F)=NC3)cc1; target = CaMKIV(h); assay = kinase activity; conditions = 1 µM; endpoint = remaining activity; value = 104%
SMILES = CC(=O)N[C@@H]1[C@@H](O[C@H]2O[C@H](CO)[C@H](O)[C@H](O)[C@H]2O)[C@@H](O)[C@@H](CO)O[C@@H]1O; target = Frizzled-8 (Xenopus laevis, UniProt Q91719); assay = binding, biolayer interferometry; conditions = 25 °C, added: immobilized biotinylated carbohydrate; endpoint = association rate constant; value = 6100 M⁻¹ s⁻¹
SMILES = C#CCCOC(=O)[C@]1(C)C=C(C(=O)OC(C)(C)C)C(=O)CC1; target = Mitogen-activated protein kinase 8 (MAPK8, Homo sapiens, UniProt P45983); assay = D-peptide binding, inhibitor, FP peptide displacement; conditions = 200 µM; how to read = lower is stronger displacement; endpoint = fraction bound; value = 0.0288
SMILES = CC(C)c1ccccc1-c1ccc2c(c1)N(Cc1noc(C3CCC3)n1)C(=O)CO2; target = Beclin 1-associated autophagy-related key regulator, with Beclin 1 (ATG14, Homo sapiens, UniProt Q6ZNE5); assay = NanoBRET; conditions = 100 µM; how to read = relative to: DMSO; endpoint = ATG14L-Beclin1 interaction; value = active
SMILES = O=C(C=Cc1ccccc1)Nc1cc(-c2ccnc(N3CCOCC3)c2)ccn1; target = Nuclear receptor subfamily 4 group A member 1 (NR4A1, Homo sapiens, UniProt P22736); assay = SPR; conditions = 10.0 µM; endpoint = binding response; value = 41.5 RU
SMILES = CNc1ccc([N+](=O)[O-])cc1-n1cnc(-c2cc(F)c(F)cc2F)c1; target = Toll-like receptor 1/2 (Homo sapiens, UniProt O60603+Q15399); assay = reporter gene, agonist; test system = HEK-Blue hTLR2; conditions = concentration not given; endpoint = maximal activation; value = ≥ 50%
SMILES = Nc1nc2c(ncn2[C@@H]2O[C@H](COP(=O)(O)O)[C@@H](O)[C@H]2O)c(=O)[nH]1; target = GUK1 (Homo sapiens, UniProt Q16774); assay = ITC; conditions = concentration not given, added: 150 mM KCl; endpoint = ΔH of binding; value = -11.8 kcal/mol and -10.4 kcal/mol and -10.6 kcal/mol
SMILES = Nc1ncnc2c1ncn2[C@@H]1O[C@H](COP(=O)(O)OP(=O)(O)O)[C@@H](O)[C@H]1O; target = T1, ssDNA, aptamer; assay = molecular beacon fluorescence quenching; endpoint = Kd; value = 29 µM
SMILES = Cc1nc(CSc2nc(SCc3ccc(C(C)C)cc3)nc(=O)[nH]2)cs1; target = DNA topoisomerase 2-alpha, ATPase domain (TOP2A, Homo sapiens, UniProt P11388); assay = 1H STD NMR, measured: 4-Me protons; conditions = protein to ligand ratio 100; endpoint = STD amplification factor; value = 1.01
SMILES = Nc1ccc(S(=O)(=O)Nc2nnc(Cc3ccccc3)s2)cc1; target = Glutathione hydrolase 1 proenzyme, without transmembrane domain (Homo sapiens, UniProt P19440); assay = GSH hydrolysis, uncompetitive inhibitor; conditions = 37 °C, binds gamma-glutamyl enzyme, added: GSH 5-20 µM; endpoint = Kii; value = 242 ± 6 µM
SMILES = CCCCCCCC/C=C\CCCCCCCC(=O)OC[C@H](COP(=O)(O)OCC(O)COP(=O)(O)OC[C@@H](COC(=O)CCCCCCC/C=C\CCCCCCCC)OC(=O)CCCCCCC/C=C\CCCCCCCC)OC(=O)CCCCCCC/C=C\CCCCCCCC (stereo partly shown); target = CYCS (Equus caballus, UniProt P00004); assay = bio-layer interferometry; conditions = DOPC/cardiolipin membranes; endpoint = Ka; value = 300000 ± 30000 M⁻¹
SMILES = c1ccc(OC[C@@H]2CN(CCN3CCc4ccccc43)CCO2)cc1; target = 5-hydroxytryptamine receptor 5A (HTR5A, Homo sapiens, UniProt P47898); assay = radioligand binding; conditions = concentration not given, added: [3H]LSD; endpoint = inhibition; value = 11.2%

Excerpt of the above:
SMILES = CC(C)c1ccccc1-c1ccc2c(c1)N(Cc1noc(C3CCC3)n1)C(=O)CO2; target = Beclin 1-associated autophagy-related key regulator, with Beclin 1 (ATG14, Homo sapiens, UniProt Q6ZNE5); assay = NanoBRET; conditions = 100 µM; how to read = relative to: DMSO; endpoint = ATG14L-Beclin1 interaction; value = active
